Results pooled from the literature.
Compare with care: the assays were run in different laboratories. Values joined by “and” are separate records of one study, mostly repeats; a detail may differ. Numbers after ± are the reported error.
Chain of UniProt P24723 (whole entry, looked up): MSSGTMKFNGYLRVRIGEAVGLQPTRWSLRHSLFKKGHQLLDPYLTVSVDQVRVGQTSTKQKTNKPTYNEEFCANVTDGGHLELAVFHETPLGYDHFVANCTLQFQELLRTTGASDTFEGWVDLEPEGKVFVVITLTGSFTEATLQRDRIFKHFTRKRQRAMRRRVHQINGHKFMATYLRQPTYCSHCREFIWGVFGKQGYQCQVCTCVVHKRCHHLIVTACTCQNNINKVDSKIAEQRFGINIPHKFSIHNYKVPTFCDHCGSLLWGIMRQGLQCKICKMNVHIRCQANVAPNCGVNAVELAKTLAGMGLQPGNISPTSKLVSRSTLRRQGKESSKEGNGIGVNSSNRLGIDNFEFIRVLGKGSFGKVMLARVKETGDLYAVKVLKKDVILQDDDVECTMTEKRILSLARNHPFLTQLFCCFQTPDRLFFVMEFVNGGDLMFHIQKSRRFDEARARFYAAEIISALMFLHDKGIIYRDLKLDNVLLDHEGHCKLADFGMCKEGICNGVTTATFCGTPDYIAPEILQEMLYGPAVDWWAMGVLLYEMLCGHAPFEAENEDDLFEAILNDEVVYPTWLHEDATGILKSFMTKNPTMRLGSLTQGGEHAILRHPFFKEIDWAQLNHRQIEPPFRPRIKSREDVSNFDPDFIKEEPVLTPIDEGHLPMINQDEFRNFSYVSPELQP

SMILES	target or system	test	system	conditions	how to read	quantity	result
CCOc1cncc(-c2ccc(NC(=O)C3(c4ccnc(NS(=O)(=O)C5CC5)n4)CCOCC3)nc2)n1	SNU-475	cell proliferation, CellTiter-Glo	–	72 h	–	IC50	10 µM
CC(C)=CCc1cc(C(=O)/C=C/c2ccc(O)cc2)c(O)cc1O	–	phase I metabolism	mouse liver microsomes	–	–	substrate inhibition constant Ki	34.3 ± 5.68 µM
O=C(Nc1nnc2c1c(-c1ccc(Cl)cc1)nc1sc(=Cc3ccco3)c(=O)n12)c1ccccc1 (mixture of isomers)	MDA-MB-231/ATCC	NCI60 SRB	–	10 µM	–	growth percent	53.8%
O=C(NCc1cc(F)cc(F)c1)[C@@]1(O)CCN(c2ccc3[nH]ccc3c2)C1=O	Anal PDX-derived tumour cells	colony formation, soft agar clonogenic	–	concentration not given, 8-10 days	–	maximal inhibition	73%
CN1CC[C@@H](COc2cnc(C#N)cc2-c2ccn3nc(NC(=O)C4CC4)cc3c2)C1	human PBMC, myeloid cells	single-cell RNA-seq	–	10 µM, together with: LPS	relative to: LPS alone	number of upregulated genes	61 genes
CNc1ncnc2c1ncn2C1OC(CO)C(O)C1O (centres unmarked)	mock-transfected cells	TGFα shedding, agonist	–	1 nM	relative to: unstimulated vehicle control	AP-TGFα release	0.23% and -0.67% and -0.18%
O=C(N[C@@H](Cc1ccc(OCCCCC2CCNCC2)cc1)C(=O)O)c1nc2ccccc2o1.O=C(O)C(F)(F)F	platelets	impedance aggregometry	human, diluted whole blood	100 nM, together with: ADP	relative to: untreated	ADP-induced aggregation	0.31 and 0.619 and 0.561 and 0.302
CCN(CC)CC#CCNc1ccnc2cc(Cl)ccc12	Salmonella typhimurium	mini-Ames test	TA100	250.0 µg/well, with rat liver S9	–	mean revertants	21 revertants/well
Cc1ncsc1-c1ccc(C(C)NC(=O)C2CC(O)CN2C(=O)C(NC(=O)CCCCCCCCCCN2CCCC(Nc3ncc(Cl)c(Nc4ccccc4S(=O)(=O)C(C)C)n3)C2)C(C)(C)C)cc1 (centres unmarked)	22Rv1	RNA-seq, measured: RAP1GAP2 mRNA	–	concentration not given	relative to: DMSO	log2 fold change	-1.55
Nc1ncc(-c2cc(-c3cnn(CC(F)(F)F)c3)ncc2F)nc1C(=O)NC1CNCC(F)C1 (centres unmarked)	BRK	KINOMEscan competition binding	–	1 µM	relative to: DMSO control	remaining binding	81%
Cc1n[nH]c(C)c1CCCOc1cc(C(=O)NCCCCC(NC(=O)CN2CCN(CC(=O)[O-])CCN(CC(=O)[O-])CCN(CC(=O)[O-])CC2)C(=O)NCC2CCC(C(=O)NC(Cc3ccc4ccccc4c3)C(=O)NCCCCC(NC(=O)NC(CCC(=O)O)C(=O)O)C(=O)O)CC2)ccc1F.[68Ga+3] (centres unmarked)	PC-3 (PSMA-negative)	–	–	–	–	uptake	0.82 ± 0.05%
Cn1c(=O)n(C2CCC(=O)NC2=O)c2ccc(C3CCN(CC(=O)Nc4cccc(CS(=O)(=O)N5CC[C@H](Nc6cccc(-c7sc(C(=O)O)c(OCC(=O)O)c7Cl)c6)CC5(C)C)c4)CC3)cc21 (some centres unmarked)	B16-F10	HTRF, measured: phospho-STAT1 Tyr701	–	0.37 µM, together with: IFN-γ	relative to: min-max normalised	pSTAT1 level	87.2% and 93.2% and 86.9% and 81.6% and 89.4% and 97.3%
COc1ccccc1-c1ccncc1C(=O)Nc1nnc(OCc2ccc(Cl)cc2)s1	PEO1 BRCA2-mutant	–	–	0.25 µM, together with: olaparib 0.25 µM	–	colony survival	12.9%
Cc1cc(NC2CCN(C)CC2)ccc1-c1cc2c(N3CCC[C@H](C(=O)N[C@H](C)c4ccccc4)C3)ncnc2[nH]1	NCI-H3122	cell growth or viability, MTT	–	0.0016 µg/mL, 72 h	–	inhibition	7.64%
CC(C)Cc1ccc(C(C)C(=O)[Se]CC(=O)Nc2cccc(C(F)(F)F)c2)cc1 (centres unmarked)	NCI60 prostate subpanel (PC-3, DU-145)	cell growth, inhibitor	–	five-dose	–	GI50	1.82 µM
CSCC[C@H](NC(=O)[C@H](CCC(N)=O)NC(=O)[C@H](CCCCN)NC(=O)[C@H](CCCNC(=N)N)NC(=O)[C@H](Cc1ccc(O)cc1)NC(=O)[C@H](CCCNC(=N)N)NC(=O)[C@H](CO)NC(=O)[C@H](Cc1ccc(O)cc1)NC(=O)[C@H](CO)NC(=O)[C@H](CC(=O)O)NC(=O)[C@@H](NC(=O)[C@@H](N)Cc1ccccc1)[C@@H](C)O)C(=O)N[C@@H](C)C(=O)N[C@H](C(=O)N[C@@H](CCCCN)C(=O)N[C@@H](CCCCn1cc(C[C@H](NC(=O)CNC(=O)[C@H](CO)NC(=O)[C@H](CCCNC(=N)N)NC(=O)[C@H](CO)NC(=O)[C@H](CC(C)C)NC(=O)[C@H](CC(C)C)NC(=O)CNC(=O)[C@H](C)NC(=O)[C@H](CC(C)C)NC(=O)[C@H](CCCNC(=N)N)NC(=O)[C@H](Cc2c[nH]cn2)NC(=O)[C@@H](NC(=O)[C@@H](N)C(C)C)[C@@H](C)O)C(=O)N[C@H](C(=O)N[C@H](C(=O)N[C@@H](CCCCN)C(=O)N[C@@H](CC(N)=O)C(=O)N[C@@H](CC(N)=O)C(=O)N[C@@H](Cc2ccccc2)C(=O)N[C@H](C(=O)N2CCC[C@H]2C(=O)N[C@H](C(=O)N[C@@H](CC(N)=O)C(=O)N[C@H](C(=O)NCC(=O)N[C@@H](CO)C(=O)N[C@@H](CCCCN)C(=O)N[C@@H](C)C(=O)N[C@@H](Cc2ccccc2)C(N)=O)C(C)C)[C@@H](C)O)C(C)C)C(C)C)C(C)C)nn1)C(=O)N[C@@H](Cc1ccc(O)cc1)C(=O)N[C@@H](CC(C)C)C(=O)N[C@@H](C)C(=O)N[C@@H](C)C(=O)N[C@H](C(=O)N[C@@H](CC(C)C)C(=O)NCC(=O)N[C@@H](CCCCN)C(=O)N[C@@H](CCCNC(=N)N)C(=O)N[C@@H](Cc1ccc(O)cc1)C(=O)N[C@@H](CCCCN)C(=O)N[C@@H](CCC(N)=O)C(=O)N[C@@H](CCCNC(=N)N)C(=O)N[C@H](C(=O)N[C@@H](CCCCN)C(=O)N[C@@H](CC(N)=O)C(=O)N[C@@H](CCCCN)C(N)=O)C(C)C)C(C)C)C(C)C	transfected COS-7 cells	cAMP accumulation, antagonist	–	together with: VIP	–	A2	3.16 µM
Cc1cccc(-c2cccc(C)n2)n1.Cc1cccc(-c2cccc(C)n2)n1.F[P-](F)(F)(F)(F)F.F[P-](F)(F)(F)(F)F.[Ru+2].c1ccc(-c2nc3c4cccnc4c4ncccc4c3[nH]2)cc1	SK-MEL-28	–	–	1% O2, together with: green light 523 nm, 100 J/cm2	relative to: dark over light EC50	phototoxicity index	2
C[C@H](NC(=O)CN)C(=O)NCC(=O)N[C@@H](C)C(=O)N[C@@H](C)C(=O)NCC(=O)NCC(=O)N[C@@H](C)C(=O)NCC(=O)NCC(=O)NCC(=O)NCC(=O)NCC(=O)NCC(=O)NCC(=O)N[C@@H](CCCCNC(=O)CCCC[C@@H]1SC[C@@H]2NC(=O)N[C@@H]21)C(N)=O	HEK293T-OFP cells	flow cytometry	–	concentration not given, together with: biotin-labelled peptide	–	binding rate	0.25% and 0.4% and 0.31%
O=C(C[Se]C(=O)c1cccnc1Nc1cccc(C(F)(F)F)c1)Nc1cccc(C(F)(F)F)c1	NCI60 breast subpanel mean	cell growth	–	–	–	TGI	4.86 µM

SMILES	target or system	test	system	conditions	how to read	quantity	result
CN1CCCNC(=O)c2cccc(c2)C(=O)NCCCN(C)CCCNc2cccc3c2C(=O)c2cccc(c2C3=O)NCCC1	SAS	RNA-Seq, measured: TLCD1 mRNA	–	1 µM, 6 h	relative to: untreated cells	log2 fold change	-0.866
CNS(=O)(=O)Nc1nccc(Cc2c(C)c3ccc(Oc4ncccc4F)cc3oc2=O)c1F	U-373 MG	cell viability, inhibitor, CellTiter-Glo	–	7 days	–	IC50	> 1 µM
Cn1ncc2cc(-c3cncc(Cl)c3N3CCC4(CCNC4=O)CC3)ccc21	LS174T	gene expression, microarray, measured: SLC39A8 mRNA	–	concentration not given, 4 h	relative to: untreated cells	log2 fold change	-2.07
COc1ccc2c(c1)c(CC(=O)[Se]CC(=O)Nc1cccc(C(F)(F)F)c1)c(C)n2C(=O)c1ccc(Cl)cc1	NCI60 prostate subpanel (PC-3, DU-145)	cell growth	–	10 µM, 48 h, one-dose	–	mean growth percent	-81.9%
CC(C)C[C@H](NC(=O)[C@@H](CCCCNC(=O)[C@@H](Cc1ccccc1)NC(=O)CCCCCNC(=O)CN1CCN(CC(=O)O)CCN(CC(=O)O)CCN(CC(=O)O)CC1)NC(=O)[C@H](Cc1ccc(O)cc1)NC(=O)[C@H](CO)NC(=O)[C@H](Cc1c[nH]c2ccccc12)NC(=O)[C@H](Cc1c[nH]cn1)NC(=O)[C@@H]1CCC(=O)N1)C(=O)N[C@@H](CCCNC(=N)N)C(=O)N1CCC[C@H]1C(=O)NCC(N)=O [indium-111 labelled]	–	–	female athymic nude mice, brain	intravenous, 0.037 MBq, 2 h	–	tissue uptake	0.01 %ID/g
[Cl-].[Cl-].[Ru+2].c1ccc(-c2ccccn2)nc1.c1ccc(-c2ccccn2)nc1.c1ccc2cc3nc4c5cccnc5c5ncccc5c4nc3cc2c1	SK-MEL-28	photocytotoxicity	–	visible light 400-700 nm, 100 J/cm2, oxygen 1%	–	EC50	117 ± 2 µM
Cc1cccc(-c2cccc(C)n2)n1.Cc1cccc(-c2cccc(C)n2)n1.F[P-](F)(F)(F)(F)F.F[P-](F)(F)(F)(F)F.[Ru+2].c1ccc2c(c1)Cc1cc(-c3nc4c5cccnc5c5ncccc5c4[nH]3)ccc1-2	SK-MEL-28	–	–	1% O2, together with: green light 523 nm, 100 J/cm2	relative to: dark over light EC50	phototoxicity index	1
COC(=O)c1cc(NC2=NC(=O)C(=Cc3ccc(N(C)C)cc3)S2)ccc1OC(C)=O	MCF7	measured: DDX11 mRNA	–	0.81 µM (IC50), 24 h	relative to: DMSO	fold change	0.496
CCN(C(=O)c1cc(F)ccc1Oc1nncnc1N1CCC2(C1)CN([C@H](CCCN(C)CCOC)C(C)C)C2)C(C)C	Hs 729	cell growth	–	72 h	–	GI50	> 10 µM
COC1CN([C@H]2CC[C@H]([C@@]3(C)Oc4c(Cl)cc(C(=O)NCc5c(SC)cc(C)[nH]c5=O)c(C)c4O3)CC2)C1	–	RNA-seq, measured: ARPP21 mouse homolog	mouse, HT-1376 xenograft, whole blood	dose not given	relative to: vehicle	log2 fold change	0.794
O=C(C[Se]C(=O)c1ccc2ccccc2n1)Nc1cccc(C(F)(F)F)c1	NCI60 prostate subpanel (PC-3, DU-145)	cell growth, inhibitor	–	five-dose	–	GI50	1.78 µM
C=CC(=O)N1[C@H](c2ccc3c(c2)OCO3)c2[nH]c3ccccc3c2C[C@@H]1C(=O)NC	rat DRG neurons	–	–	0.04115 µM, 48 h, together with: vincristine 40 nM	–	neuron degeneration	79.1% and 75.2%
COC(=O)c1cc(NC2=NC(=O)C(=Cc3ccc(C)cc3)S2)ccc1OC(C)=O	MCF7	GC-MS, measured: 1-Monopalmitin	–	1 µM	relative to: DMSO	metabolite level	-0.48 fold change
C#CCOC(=O)[C@@]1(C)C=C(C(=O)Nc2cccc(C(=O)Nc3ccc(C)c(Nc4nccc(-c5cccnc5)n4)c3)c2)C(=O)CC1	SH-SY5Y MKK7 active	western blot, measured: phospho-c-Jun Ser73	–	3 µM, unit not given	relative to: doxycycline without inhibitor	phospho-c-Jun level	0.147
CCN(CC)CC(=O)Nc1cccc(-n2cc(-c3ccc4ccc(-c5cn(-c6cccc(NC(=O)CN(CC)CC)c6)nn5)cc4c3)nn2)c1	RCC4	PCR angiogenesis array, measured: SERPINF1	–	5 x IC50, 6 h, normoxia	relative to: untreated	fold regulation	-1.28
CO[C@@H]1[C@@H](OC(N)=O)[C@@H](O)[C@H](Oc2ccc3c(O)c(NC(=O)c4ccc(O)c(CC=C(C)C)c4)c(=O)oc3c2C)OC1(C)C	DLD-1 parental	–	–	200 µM, replicate 2	–	colony count	0.1
C=CC(=O)Nc1cccc(Cn2ncc3cnc(Nc4cnn(CCOC)c4)nc32)c1	human KIT	KINOMEscan	–	100 nM	–	binding	29%
CC(C)c1ccc(N(C)c2ccc3c(c2)OCC[C@H]3CNc2cnccc2C(=O)O)cc1	NCI-H1436	cell viability, CellTiter-Glo	–	7 days	–	IC50	0.00875 µM
Cc1nn(-c2cccc(N)c2)c(=O)c2cnc(Nc3ccc(N4CCNCC4)cc3)nc12	Protein kinase C eta type (PRKCH, Homo sapiens, UniProt P24723)	enzyme activity, inhibitor	–	–	–	IC50	> 10 µM

For quick reference, copied from above:
SMILES	target or system	test	system	conditions	how to read	quantity	result
CC(C)=CCc1cc(C(=O)/C=C/c2ccc(O)cc2)c(O)cc1O	–	phase I metabolism	mouse liver microsomes	–	–	substrate inhibition constant Ki	34.3 ± 5.68 µM
CN1CC[C@@H](COc2cnc(C#N)cc2-c2ccn3nc(NC(=O)C4CC4)cc3c2)C1	human PBMC, myeloid cells	single-cell RNA-seq	–	10 µM, together with: LPS	relative to: LPS alone	number of upregulated genes	61 genes
COc1ccc2c(c1)c(CC(=O)[Se]CC(=O)Nc1cccc(C(F)(F)F)c1)c(C)n2C(=O)c1ccc(Cl)cc1	NCI60 prostate subpanel (PC-3, DU-145)	cell growth	–	10 µM, 48 h, one-dose	–	mean growth percent	-81.9%
Cc1nn(-c2cccc(N)c2)c(=O)c2cnc(Nc3ccc(N4CCNCC4)cc3)nc12	Protein kinase C eta type (PRKCH, Homo sapiens, UniProt P24723)	enzyme activity, inhibitor	–	–	–	IC50	> 10 µM
